# Experimental data gathered from unrelated publications.
# Amino acid sequences for entries named in this document (tags omitted). Residues count along the entry.
# UniProt P18031, 1-321 limits assumed: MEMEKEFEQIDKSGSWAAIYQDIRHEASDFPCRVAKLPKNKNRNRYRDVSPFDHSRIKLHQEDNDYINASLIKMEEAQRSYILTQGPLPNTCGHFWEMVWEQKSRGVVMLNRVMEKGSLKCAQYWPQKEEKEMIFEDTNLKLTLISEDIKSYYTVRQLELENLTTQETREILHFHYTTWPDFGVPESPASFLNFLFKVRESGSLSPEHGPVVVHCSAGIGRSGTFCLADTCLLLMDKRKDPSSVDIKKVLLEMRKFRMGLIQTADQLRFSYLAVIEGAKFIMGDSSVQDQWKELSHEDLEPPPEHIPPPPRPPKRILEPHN
# UniProt P16083, whole entry: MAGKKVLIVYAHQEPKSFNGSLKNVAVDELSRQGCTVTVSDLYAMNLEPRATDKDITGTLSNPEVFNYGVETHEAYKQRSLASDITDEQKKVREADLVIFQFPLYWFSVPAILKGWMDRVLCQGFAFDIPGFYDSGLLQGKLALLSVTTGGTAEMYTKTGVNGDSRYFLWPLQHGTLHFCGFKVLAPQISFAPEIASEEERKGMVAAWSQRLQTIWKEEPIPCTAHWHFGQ
# UniProt Q9M9V8, whole entry: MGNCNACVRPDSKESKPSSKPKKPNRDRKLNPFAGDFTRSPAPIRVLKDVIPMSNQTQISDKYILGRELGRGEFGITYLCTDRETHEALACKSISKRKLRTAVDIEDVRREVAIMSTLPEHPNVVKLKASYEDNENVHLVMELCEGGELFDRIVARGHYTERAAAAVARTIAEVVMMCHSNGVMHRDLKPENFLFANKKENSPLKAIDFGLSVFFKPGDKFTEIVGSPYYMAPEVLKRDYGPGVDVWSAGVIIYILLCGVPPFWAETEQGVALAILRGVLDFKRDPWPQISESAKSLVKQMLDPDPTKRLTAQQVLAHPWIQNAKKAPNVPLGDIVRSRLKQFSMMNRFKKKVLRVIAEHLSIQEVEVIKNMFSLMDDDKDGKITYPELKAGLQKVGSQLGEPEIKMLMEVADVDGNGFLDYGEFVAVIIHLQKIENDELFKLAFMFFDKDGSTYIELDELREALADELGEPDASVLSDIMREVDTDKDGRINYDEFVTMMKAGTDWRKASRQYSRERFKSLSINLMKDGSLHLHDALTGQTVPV
# UniProt Q99250, whole entry: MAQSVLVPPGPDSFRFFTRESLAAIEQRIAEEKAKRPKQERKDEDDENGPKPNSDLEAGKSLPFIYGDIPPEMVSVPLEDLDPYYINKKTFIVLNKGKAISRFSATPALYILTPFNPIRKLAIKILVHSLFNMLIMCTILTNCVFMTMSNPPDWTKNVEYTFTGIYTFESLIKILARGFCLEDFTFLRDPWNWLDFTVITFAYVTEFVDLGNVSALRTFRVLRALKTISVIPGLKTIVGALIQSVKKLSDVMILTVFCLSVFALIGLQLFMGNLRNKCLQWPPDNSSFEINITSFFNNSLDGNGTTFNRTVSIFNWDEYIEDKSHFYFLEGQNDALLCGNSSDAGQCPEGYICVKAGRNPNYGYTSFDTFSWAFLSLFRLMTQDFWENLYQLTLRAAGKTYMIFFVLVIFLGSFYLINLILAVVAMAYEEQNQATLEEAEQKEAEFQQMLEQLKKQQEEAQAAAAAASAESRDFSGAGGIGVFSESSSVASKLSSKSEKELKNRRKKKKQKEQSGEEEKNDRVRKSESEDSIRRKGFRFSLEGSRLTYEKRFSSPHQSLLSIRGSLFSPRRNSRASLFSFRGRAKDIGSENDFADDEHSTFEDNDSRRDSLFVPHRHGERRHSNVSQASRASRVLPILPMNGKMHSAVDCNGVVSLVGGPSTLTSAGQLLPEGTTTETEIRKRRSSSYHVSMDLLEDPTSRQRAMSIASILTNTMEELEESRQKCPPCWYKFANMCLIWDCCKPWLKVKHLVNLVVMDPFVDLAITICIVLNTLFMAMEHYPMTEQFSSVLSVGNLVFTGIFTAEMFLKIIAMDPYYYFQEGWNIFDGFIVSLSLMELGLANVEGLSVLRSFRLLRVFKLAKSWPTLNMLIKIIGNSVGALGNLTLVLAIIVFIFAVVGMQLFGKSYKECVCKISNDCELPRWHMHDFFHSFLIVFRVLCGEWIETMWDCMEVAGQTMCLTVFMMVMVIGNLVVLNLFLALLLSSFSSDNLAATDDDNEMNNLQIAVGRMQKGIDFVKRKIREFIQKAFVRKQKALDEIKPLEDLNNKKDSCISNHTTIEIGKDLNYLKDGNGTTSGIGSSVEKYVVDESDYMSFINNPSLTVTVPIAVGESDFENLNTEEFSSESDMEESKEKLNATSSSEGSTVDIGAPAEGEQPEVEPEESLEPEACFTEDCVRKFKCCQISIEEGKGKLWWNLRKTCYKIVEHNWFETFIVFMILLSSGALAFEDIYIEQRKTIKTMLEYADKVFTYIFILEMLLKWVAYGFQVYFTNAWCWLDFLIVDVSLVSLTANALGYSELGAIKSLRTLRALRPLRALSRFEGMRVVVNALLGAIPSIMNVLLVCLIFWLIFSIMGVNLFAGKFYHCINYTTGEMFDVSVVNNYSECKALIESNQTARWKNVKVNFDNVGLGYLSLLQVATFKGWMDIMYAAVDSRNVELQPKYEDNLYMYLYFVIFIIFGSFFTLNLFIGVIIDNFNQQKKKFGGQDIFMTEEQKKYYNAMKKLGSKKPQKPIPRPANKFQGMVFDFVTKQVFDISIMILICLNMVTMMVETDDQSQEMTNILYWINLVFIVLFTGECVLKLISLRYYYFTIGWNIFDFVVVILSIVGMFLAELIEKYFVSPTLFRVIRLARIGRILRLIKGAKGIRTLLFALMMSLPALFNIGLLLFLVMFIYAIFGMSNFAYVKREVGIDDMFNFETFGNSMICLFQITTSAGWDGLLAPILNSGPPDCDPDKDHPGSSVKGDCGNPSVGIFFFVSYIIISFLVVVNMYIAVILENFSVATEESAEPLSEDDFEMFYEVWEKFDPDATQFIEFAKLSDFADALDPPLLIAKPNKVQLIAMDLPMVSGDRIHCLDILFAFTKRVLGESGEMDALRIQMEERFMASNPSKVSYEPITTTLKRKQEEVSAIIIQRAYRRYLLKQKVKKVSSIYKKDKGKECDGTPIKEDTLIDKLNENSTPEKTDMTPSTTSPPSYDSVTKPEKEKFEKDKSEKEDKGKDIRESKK
# UniProt O15151, 23-111 limits assumed: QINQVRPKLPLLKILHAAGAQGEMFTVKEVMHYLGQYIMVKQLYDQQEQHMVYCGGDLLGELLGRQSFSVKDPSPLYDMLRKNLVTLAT
# UniProt Q16539, whole entry: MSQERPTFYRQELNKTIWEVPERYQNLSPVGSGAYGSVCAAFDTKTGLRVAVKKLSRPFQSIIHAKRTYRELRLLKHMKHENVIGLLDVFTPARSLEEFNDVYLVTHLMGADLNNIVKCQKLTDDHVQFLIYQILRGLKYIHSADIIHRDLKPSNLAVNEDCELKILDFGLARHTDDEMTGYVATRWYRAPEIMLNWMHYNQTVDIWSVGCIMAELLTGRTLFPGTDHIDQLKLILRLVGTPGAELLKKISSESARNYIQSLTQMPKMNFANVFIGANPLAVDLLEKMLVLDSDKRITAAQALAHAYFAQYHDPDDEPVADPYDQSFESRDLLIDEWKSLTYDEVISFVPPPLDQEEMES
# UniProt Q9UBN7, whole entry: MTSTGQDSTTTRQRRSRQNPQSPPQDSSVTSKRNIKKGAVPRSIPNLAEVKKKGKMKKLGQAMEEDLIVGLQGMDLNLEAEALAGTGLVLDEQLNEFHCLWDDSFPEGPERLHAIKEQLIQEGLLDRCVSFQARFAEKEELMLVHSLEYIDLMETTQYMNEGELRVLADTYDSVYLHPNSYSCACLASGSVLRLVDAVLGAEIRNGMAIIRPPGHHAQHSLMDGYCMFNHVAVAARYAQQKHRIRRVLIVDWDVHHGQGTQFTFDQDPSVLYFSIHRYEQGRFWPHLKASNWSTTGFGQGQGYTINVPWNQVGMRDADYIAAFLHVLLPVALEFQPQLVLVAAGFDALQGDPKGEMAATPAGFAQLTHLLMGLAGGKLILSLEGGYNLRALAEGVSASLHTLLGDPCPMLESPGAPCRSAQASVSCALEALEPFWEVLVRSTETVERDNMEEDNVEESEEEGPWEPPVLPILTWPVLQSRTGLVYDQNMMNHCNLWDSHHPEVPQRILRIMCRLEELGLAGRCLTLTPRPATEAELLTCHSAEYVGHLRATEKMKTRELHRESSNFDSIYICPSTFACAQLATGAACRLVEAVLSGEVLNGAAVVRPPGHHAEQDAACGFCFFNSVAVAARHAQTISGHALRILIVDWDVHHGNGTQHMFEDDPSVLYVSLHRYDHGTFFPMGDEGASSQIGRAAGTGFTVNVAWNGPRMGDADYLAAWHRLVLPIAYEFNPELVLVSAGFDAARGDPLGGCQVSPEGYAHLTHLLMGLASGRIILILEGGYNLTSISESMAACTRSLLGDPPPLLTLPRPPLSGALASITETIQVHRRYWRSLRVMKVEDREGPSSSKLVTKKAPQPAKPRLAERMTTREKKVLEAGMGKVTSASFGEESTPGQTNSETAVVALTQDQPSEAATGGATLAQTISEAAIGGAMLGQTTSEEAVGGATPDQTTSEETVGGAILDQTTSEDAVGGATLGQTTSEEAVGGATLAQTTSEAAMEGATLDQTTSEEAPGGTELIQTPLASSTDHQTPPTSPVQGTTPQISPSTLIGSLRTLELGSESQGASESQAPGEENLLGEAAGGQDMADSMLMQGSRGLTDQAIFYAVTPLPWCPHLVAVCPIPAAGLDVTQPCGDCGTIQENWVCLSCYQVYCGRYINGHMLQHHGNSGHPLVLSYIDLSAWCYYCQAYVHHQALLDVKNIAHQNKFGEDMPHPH
# UniProt P61981, whole entry: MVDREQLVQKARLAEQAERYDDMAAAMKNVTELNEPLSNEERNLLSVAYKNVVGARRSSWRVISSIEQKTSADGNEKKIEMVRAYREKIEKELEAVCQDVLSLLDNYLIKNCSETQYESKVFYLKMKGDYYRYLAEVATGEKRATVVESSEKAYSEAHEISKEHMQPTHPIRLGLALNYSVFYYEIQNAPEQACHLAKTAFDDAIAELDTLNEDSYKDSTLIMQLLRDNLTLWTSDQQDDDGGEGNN
# UniProt P35462, whole entry: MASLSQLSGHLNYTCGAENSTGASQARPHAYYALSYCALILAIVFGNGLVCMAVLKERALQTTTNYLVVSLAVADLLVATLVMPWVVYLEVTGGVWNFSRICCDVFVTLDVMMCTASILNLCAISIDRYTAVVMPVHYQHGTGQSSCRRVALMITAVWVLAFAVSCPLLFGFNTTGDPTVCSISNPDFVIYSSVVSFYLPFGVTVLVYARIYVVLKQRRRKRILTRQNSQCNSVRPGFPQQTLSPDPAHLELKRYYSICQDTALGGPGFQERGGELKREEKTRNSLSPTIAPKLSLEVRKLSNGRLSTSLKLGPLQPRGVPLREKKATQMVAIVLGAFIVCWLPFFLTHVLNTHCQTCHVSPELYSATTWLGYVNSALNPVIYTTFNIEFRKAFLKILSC
# Lines come from different studies, so protocols differ. ± marks the error that the study gave.
# PTPN1: Tyrosine-protein phosphatase non-receptor type 1 (PTPN1, Homo sapiens, UniProt P18031)
SMILES,tested on,assay,system,setting,how to read,measurement,value
CC(C)C[C@H](NC(=O)[C@@H](NC(=O)[C@H](CC(C)C)NC(=O)[C@H](CS)NC(=O)CNS(=O)(=O)c1cccc2c(N(C)C)cccc12)C(C)C)C(=O)O,"geranylgeranyltransferase type-I (Rattus norvegicus, UniProt P53610+Q04631)","substrate, fluorescence",,"30 °C, GGPP 10 µM/enzyme 10 nM, added: SmgGDS-558 5 µM",,kcat,0.039 ± 0.012 s⁻¹
CN1C(=O)CCc2cc(CNC(C)(C)[C@@H](O)c3ccccc3)ccc21,,,"male CD-1 mouse, brain","subcutaneous, 10 mg/kg",,AUC(0-t),247000 ng·min/mL/g
C=C(C)C(=O)Nc1ccc(-c2c(-c3ccc(Oc4nccc(C)n4)c(F)c3)c3c(N)ncnc3n2C)cc1,MFM-223,"cell growth, CellTiter-Glo",,"120 h, unit not given","reference: untreated growth rate, higher = stronger inhibition",area over GR curve,0.834
CCN(CC)CCCC(C)Nc1cc(-c2ccccc2)nc2cc(OC)ccc12 (stereo not drawn),"NQO2 (Homo sapiens, UniProt P16083)",from IC50 by Cheng-Prusoff,,,,binding free energy,-8.59 kcal/mol
CC(C)CC(NC(=O)C(Cc1ccccc1)NC(=O)c1cnc(C(=O)NC(Cc2ccccc2)C(=O)NC(CC(C)C)B(O)O)cn1)B(O)O (stereo not drawn),proteasome (human),"trypsin-like activity, inhibitor, Proteasome-Glo",MM.1R,24 h,,IC50,> 0.018 µM
N#Cc1c(-c2ccc(Cl)cc2Cl)n(-c2nc(-c3ccc(Cl)cc3)c3c(NC(=O)c4ccccc4)nnc-3[nH]2)[nH]c1=O,UO-31,SRB,,10 µM,,cell growth,24.5%
COc1ccc2c(CC(=O)N3CCC[C@H]3C(=O)N[C@@H](CC(C)C)C(=O)NCC(=O)N[C@@H](CC(C)C)C(=O)N[C@@H](CNc3ccc([N+](=O)[O-])cc3[N+](=O)[O-])C(=O)N[C@@H](C)C(=O)N[C@@H](CCCNC(=N)N)C(N)=O)cc(=O)oc2c1,"MMP14 (Homo sapiens, UniProt P50281)","substrate, FRET peptide cleavage",,"0.5 to 4.5 µM, pH 8.0, 37 °C, added: refolded enzyme 15 nM",,kcat,0.00097 ± 5e-05 s⁻¹
CC/C=C\C/C=C\CCC/C=C/C=C/C=C\CCCC(=O)O,"POLE (Homo sapiens, UniProt Q07864)","enzyme activity, inhibitor",,,,IC50,27.4 ± 1.6 µM
CC[C@H](C)[C@H](NC(=O)[C@H](CCCNC(=N)N)NC(=O)[C@H](CO)NC(=O)[C@@H](NC(=O)[C@@H](NC(=O)[C@H](CCCCN)NC(=O)[C@@H](N)C(C)C)[C@@H](C)CC)[C@@H](C)CC)C(=O)N[C@@H](Cc1ccccc1)C(=O)N[C@@H](CO)C(=O)N[C@@H](CCC(N)=O)C(=O)N[C@@H](CCCNC(=N)N)C(=O)N[C@@H](CO)C(=O)N[C@@H](Cc1ccccc1)C(=O)N[C@@H](CCCNC(=N)N)C(=O)N[C@@H](CCCNC(=N)N)C(=O)O,"Calcium-dependent protein kinase 10 (CPK10, Arabidopsis thaliana, UniProt Q9M9V8)","peptide phosphorylation, substrate, scintillation proximity",,"20 µM, 24 min, added: 10 µM ATP","reference: no peptide control, higher = more phosphorylation",relative phosphorylation,24 fold
"CC(=O)C12NC(C)(C)CC1(C)C(=O)C1=C2c2c(c3c4n2C(C)(C)CC2=C4C4(CC(C)(C)NC(C)(C4)C2=O)CC3(C)C)C(=O)C(C)(C)N1 (single isomer, unassigned)","SCN2A (Homo sapiens, UniProt Q99250)",sodium current,,40 µM,,inhibition,61 ± 0.04%
COc1cccc([C@@H]2N=C(c3ccc(OC)cc3OC(C)C)N(C(=O)N3CCNC(=O)C3)[C@@H]2c2ccc(Cl)cc2)c1 (relative stereo),"Protein Mdm4 (MDM4, Homo sapiens, UniProt O15151)",isothermal titration calorimetry,,298 K,,ΔH,-7.7 ± 2 kcal/mol
CC(C)C[C@H](NC(=O)[C@H](C)NC(=O)[C@H](CCCNC(=N)N)NC(=O)[C@H](CCCNC(=N)N)NC(=O)[C@H](CCCNC(=N)N)NC(=O)[C@H](C)NC(=O)[C@H](CC(C)C)NC(=O)[C@H](CCCNC(=N)N)NC(=O)[C@H](CO)NC(=O)[C@H](CCCCN)NC(=O)[C@H](CO)NC(=O)Cn1cc(COC(=O)[C@]2(C)C=C(C(=O)OC(C)(C)C)C(=O)CC2)nn1)C(=O)O,"MAPK14 (Homo sapiens, UniProt Q16539)","enzyme activity, inhibitor, D-SENSOR",,22.22 µM,,normalized kinase activity,0.0129
CC(=O)NCCCC[C@H](NC(=O)[C@H](CCCCNC(C)=O)NC(=O)[C@H](Cc1c[nH]cn1)NC(=O)[C@H](CCCNC(=N)N)NC(C)=O)C(=O)Nc1ccc2c(C)cc(=O)oc2c1,"HDAC6 (Homo sapiens, UniProt Q9UBN7)","deacetylation, substrate",,"25 °C, added: 10 to 50 nM enzyme",,kcat/KM,17000 ± 5000 M⁻¹ s⁻¹
CC[C@H](C)[C@H](NC(=O)[C@H](CCCCN)NC(=O)[C@H](CCCNC(=N)N)NC(=O)[C@H](CCCCN)NC(C)=O)C(=O)N[C@@H](CC(C)C)C(=O)N[C@@H](CO)C(=O)N[C@@H](COP(=O)(O)O)C(=O)N[C@@H](CC(=O)O)C(=O)N[C@@H](CC(=O)O)C(=O)N[C@@H](CO)C(=O)N[C@@H](CC(C)C)C(=O)N[C@@H](CCCNC(=N)N)C(=O)N[C@@H](CO)C(N)=O,"YWHAG (Homo sapiens, UniProt P61981)",isothermal titration calorimetry,,"pH 7.4, 37 °C",,ΔH,-6.1 kcal/mol
CC(=O)N[C@@H](C)C(=O)N[C@@H](Cc1ccc(OP(=O)(O)O)cc1)C(=O)N[C@@H](Cc1ccc(O)cc1)C(=O)N[C@@H](C)C(=O)N[C@@H](CCC(=O)O)C(=O)N[C@@H](CO)C(=O)N[C@@H](Cc1ccc(OP(=O)(O)O)cc1)C(=O)N[C@@H](C)C(=O)N[C@@H](C)C(N)=O,PTPN1,"substrate, continuous UV",,"pH 7.4, multiply phosphorylated peptides apparent",,Km,3.1 ± 0.4 µM
CCOC(=O)c1c(-c2ccc(Cl)cc2Cl)n(-c2nc(-c3ccc(Cl)cc3)c3c(NC(=O)c4ccccc4)nnc-3[nH]2)[nH]c1=O,UO-31,SRB,,10 µM,,cell growth,17.3%
CC[C@H](C)[C@H](NC(=O)[C@H](CCCNC(=N)N)NC(=O)[C@H](CCCCN)NC(=O)[C@H](CCCNC(=N)N)NC(=O)[C@H](C)NC(C)=O)C(=O)N[C@@H](Cc1ccc(OP(=O)(O)O)cc1)C(=O)N[C@@H](C)C(=O)N[C@@H](C)C(N)=O,PTPN1,"substrate, continuous UV",,"pH 7.4, multiply phosphorylated peptides apparent",,Km,> 500 µM
CCn1c2c(c3ccccc31)CCN(CCCCNC(=O)c1ccc3[nH]c4ccccc4c3c1)C2,"DRD3 (Homo sapiens, UniProt P35462)",binding,,10 µM,,inhibition,97.1 ± 2.9%

# A few entries again:
SMILES,tested on,assay,system,setting,how to read,measurement,value
COc1cccc([C@@H]2N=C(c3ccc(OC)cc3OC(C)C)N(C(=O)N3CCNC(=O)C3)[C@@H]2c2ccc(Cl)cc2)c1 (relative stereo),"Protein Mdm4 (MDM4, Homo sapiens, UniProt O15151)",isothermal titration calorimetry,,298 K,,ΔH,-7.7 ± 2 kcal/mol
CC(C)C[C@H](NC(=O)[C@H](C)NC(=O)[C@H](CCCNC(=N)N)NC(=O)[C@H](CCCNC(=N)N)NC(=O)[C@H](CCCNC(=N)N)NC(=O)[C@H](C)NC(=O)[C@H](CC(C)C)NC(=O)[C@H](CCCNC(=N)N)NC(=O)[C@H](CO)NC(=O)[C@H](CCCCN)NC(=O)[C@H](CO)NC(=O)Cn1cc(COC(=O)[C@]2(C)C=C(C(=O)OC(C)(C)C)C(=O)CC2)nn1)C(=O)O,"MAPK14 (Homo sapiens, UniProt Q16539)","enzyme activity, inhibitor, D-SENSOR",,22.22 µM,,normalized kinase activity,0.0129
